{"data": "Assay results of several laboratories", "note": "Every numbered part comes from another study and shows a few of its results, in no order."}
{"data": "Sample 1", "target": "Interferon regulatory factor 5, full length, phosphomimetic (IRF5, Homo sapiens, UniProt Q13568-2, residues 1-514, S451D/S453D/S456D/S462D)", "method": "protein-binding microarray", "molecule type": "double-stranded DNA, one strand shown", "matrix": "in vitro", "tested at": "940 nM top", "setting": "60-bp whole probe", "with": "salmon DNA 0.4 mg/ml", "reference": "random background probes", "reading": "higher = stronger binding", "shared flanks, not repeated": "GCCTAGCAC … GTCTTGATTCGCTTGACGCTGCTG"}
{"Strand": "GACGAATTGAGACTGGAGACGTGCTAG", "fitted relative affinity [z-score]": -0.231}
{"Strand": "TTAGGCTTCGGACTGGGTTAGTGCTAG", "fitted relative affinity [z-score]": -0.451}
{"Strand": "GACGGTCTCCTACTGCTCACGTGCTAG", "fitted relative affinity [z-score]": -0.262}
{"Strand": "GACGGTATCCTTATCCTGGCGTGCTAG", "fitted relative affinity [z-score]": 0.577}
{"Strand": "GACGATATCAGTATCGAGAAGTGCTAG", "fitted relative affinity [z-score]": 1.62}
{"Strand": "GACGTTTTTCATTTTTTTTTGTGCTAG", "fitted relative affinity [z-score]": 1.26}
{"Strand": "TTAGATTCCAGTTTCGAGTAGTGCTAG", "fitted relative affinity [z-score]": 4.08}
{"Strand": "GACGATATCGGGTTTGGAGACGTGCTA", "fitted relative affinity [z-score]": -0.119}
{"Strand": "TTAGGTATCGGTTTGGGTTAGTGCTAG", "fitted relative affinity [z-score]": 10}
{"Strand": "TGGGCTCTAGGTTCTCTGAAGGTGCTA", "fitted relative affinity [z-score]": -0.498}
{"Strand": "GACGGACTGGGTAGCGGGACGTGCTAG", "fitted relative affinity [z-score]": -0.367}
{"Strand": "GACGCTATCGACTATCGGGACGTGCTA", "fitted relative affinity [z-score]": -0.00416}
{"Strand": "CCCATGCTGGATGAAGTACAGTGCTAG", "fitted relative affinity [z-score]": -0.393}
{"Strand": "TTAGGACTGGACTATCGGTAAGTGCTA", "fitted relative affinity [z-score]": -0.327}
{"Strand": "TTAGGTTACGGGTATCGGTTAGTGCTA", "fitted relative affinity [z-score]": 2.89}
{"Strand": "GACGGACTGGGGACTGGGGCCGTGCTA", "fitted relative affinity [z-score]": -0.536}
{"Strand": "TCATTTTTTGTAATCGAACTGTGCTAG", "fitted relative affinity [z-score]": 0.506}
{"Strand": "ACCTGAGTCCCTATCTCCTCGTGCTAG", "fitted relative affinity [z-score]": 0.335}
{"Strand": "ATATATATGAATATATATTAGTGCTAG", "fitted relative affinity [z-score]": 0.0572}
{"Strand": "GACGGTAACGACACTGGGGACGTGCTA", "fitted relative affinity [z-score]": -0.128}
{"Strand": "GACGATTCCAGTTCCGAGACGTGCTAG", "fitted relative affinity [z-score]": 0.914}
{"Strand": "TTAGGACTGGGGTATCGATTAGTGCTA", "fitted relative affinity [z-score]": 2.62}
{"Strand": "TCAGCTCTGGCACCTCTAACTGTGCTA", "fitted relative affinity [z-score]": -0.0933}
{"Strand": "GACGGTTTTGGACTGGGGACGTGCTAG", "fitted relative affinity [z-score]": 0.484}
{"Strand": "GACGATTTCAGTCGCGAGACGTGCTAG", "fitted relative affinity [z-score]": 0.245}
{"data": "Sample 2", "target": "Sal-like protein 4, full length isoform A (SALL4, Homo sapiens, UniProt Q9UJQ4, residues 1-1053)", "method": "universal PBM", "molecule type": "double-stranded DNA, one strand shown", "matrix": "in vitro", "tested at": "600 nM", "setting": "8-mer, flanks averaged, mean of replicates", "reading": "higher = stronger binding", "chain of UniProt Q9UJQ4 (whole entry, looked up)": "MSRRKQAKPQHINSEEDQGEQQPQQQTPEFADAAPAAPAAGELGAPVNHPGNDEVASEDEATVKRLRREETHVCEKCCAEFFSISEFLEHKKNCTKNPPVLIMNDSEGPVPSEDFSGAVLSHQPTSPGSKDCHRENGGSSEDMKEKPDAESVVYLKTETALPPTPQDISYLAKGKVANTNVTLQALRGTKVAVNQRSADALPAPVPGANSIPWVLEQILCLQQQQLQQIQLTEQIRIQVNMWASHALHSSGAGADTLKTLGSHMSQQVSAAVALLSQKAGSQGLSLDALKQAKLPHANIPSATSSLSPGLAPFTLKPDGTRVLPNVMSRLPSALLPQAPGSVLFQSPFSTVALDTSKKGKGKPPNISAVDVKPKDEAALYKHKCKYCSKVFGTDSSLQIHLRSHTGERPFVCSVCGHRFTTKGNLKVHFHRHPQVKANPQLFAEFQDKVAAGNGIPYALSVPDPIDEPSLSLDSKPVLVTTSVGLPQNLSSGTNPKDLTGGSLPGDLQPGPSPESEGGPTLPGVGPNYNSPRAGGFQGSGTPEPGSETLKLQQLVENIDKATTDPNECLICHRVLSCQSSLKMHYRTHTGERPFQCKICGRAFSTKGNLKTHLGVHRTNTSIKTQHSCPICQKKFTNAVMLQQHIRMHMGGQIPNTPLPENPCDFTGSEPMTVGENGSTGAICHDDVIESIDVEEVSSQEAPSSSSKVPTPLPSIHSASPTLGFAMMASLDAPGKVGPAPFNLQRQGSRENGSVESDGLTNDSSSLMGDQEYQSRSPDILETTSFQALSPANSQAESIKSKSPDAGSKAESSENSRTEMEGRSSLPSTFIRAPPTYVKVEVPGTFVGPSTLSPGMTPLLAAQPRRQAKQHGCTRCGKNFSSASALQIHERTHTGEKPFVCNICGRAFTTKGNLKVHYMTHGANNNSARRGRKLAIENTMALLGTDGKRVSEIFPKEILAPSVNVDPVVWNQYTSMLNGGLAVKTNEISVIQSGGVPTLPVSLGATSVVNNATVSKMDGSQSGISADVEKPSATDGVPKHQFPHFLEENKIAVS"}
{"Strand": "AACTGACC", "E-score": -0.198}
{"Strand": "ACACCGGA", "E-score": -0.222}
{"Strand": "GCTGGCAC", "E-score": -0.228}
{"Strand": "GACACACC", "E-score": -0.155}
{"Strand": "ACCTAGCG", "E-score": -0.0897}
{"Strand": "AAGCTATG", "E-score": 0.0747}
{"Strand": "GCAGGATA", "E-score": -0.125}
{"Strand": "GCCCGATA", "E-score": -0.0612}
{"Strand": "AGCCATAT", "E-score": 0.242}
{"Strand": "CAATTACA", "E-score": 0.275}
{"Strand": "ACACCACC", "E-score": -0.165}
{"Strand": "CACAGTAG", "E-score": 0.124}
{"Strand": "CTCATGAC", "E-score": -0.028}
{"Strand": "AACGTCTC", "E-score": -0.0291}
{"Strand": "GCCCGCCC", "E-score": -0.36}
{"Strand": "ATGGCAGA", "E-score": -0.0131}
{"Strand": "CCCCATCA", "E-score": -0.0943}
{"data": "Sample 3", "target": "Centromere-binding protein 1, full length, N-terminal tag (CBF1, Saccharomyces cerevisiae, UniProt P17106, residues 1-351)", "method": "protein-binding microarray", "molecule type": "double-stranded DNA, one strand shown", "matrix": "in vitro", "tested at": "0.8 µM", "setting": "whole 60-bp probe, no competitor", "reading": "higher = stronger binding", "shared flanks, not repeated": "… GTCTTGATTCGCTTGACGCTGCTG", "chain of UniProt P17106 (whole entry, looked up)": "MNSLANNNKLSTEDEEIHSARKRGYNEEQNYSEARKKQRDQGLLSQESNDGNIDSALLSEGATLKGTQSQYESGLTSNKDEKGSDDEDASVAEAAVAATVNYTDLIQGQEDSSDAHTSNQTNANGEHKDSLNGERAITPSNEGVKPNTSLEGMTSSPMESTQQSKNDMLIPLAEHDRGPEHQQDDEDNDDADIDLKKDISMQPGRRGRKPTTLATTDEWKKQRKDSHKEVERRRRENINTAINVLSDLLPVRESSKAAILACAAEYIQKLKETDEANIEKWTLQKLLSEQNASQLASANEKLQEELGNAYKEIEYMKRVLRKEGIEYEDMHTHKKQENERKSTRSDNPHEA"}
{"Strand": "CTAACGAATGAAAAGCACGTGAACTAACAAACTTTC", "fluorescence intensity [a.u.]": 4840}
{"Strand": "CTATCTGACATTGCTAGTGTCACGTTCAGAAAATTC", "fluorescence intensity [a.u.]": 3620}
{"Strand": "CTAAAGCGTATTTGTGACCAGTGTACTTCAAGGTTC", "fluorescence intensity [a.u.]": 542}
{"Strand": "GAAAATCATTAGCAGCACATGTCGAGCAACAGATAG", "fluorescence intensity [a.u.]": 854}
{"Strand": "CTAAGTACCAAGAATCATATGAGCCTTTTCAGTTTC", "fluorescence intensity [a.u.]": 510}
{"Strand": "GAATCGAAAGCAATGCTGATGATGTACCACAAATAG", "fluorescence intensity [a.u.]": 513}
{"Strand": "CTATACTGCACCAACAGGTGAACTCAAAACTACTTC", "fluorescence intensity [a.u.]": 522}
{"Strand": "GAATAAAAAGTGTACCACATGTCATTAAAAGTTTAG", "fluorescence intensity [a.u.]": 1070}
{"Strand": "CTAACCTTTCAGCCTCACCTGCAGTATTTCTTCTTC", "fluorescence intensity [a.u.]": 552}
{"Strand": "GAAATCGGGCGTTTCCACGTGTACAAGAACCTGTAG", "fluorescence intensity [a.u.]": 3930}
{"Strand": "CTAATTTAAAGTCCCATCGTGACGCTCATAATATTC", "fluorescence intensity [a.u.]": 649}
{"Strand": "CTACGTAATAATCTTCACGCCATCTATATAAATTTC", "fluorescence intensity [a.u.]": 564}
{"Strand": "GAAAAGAAGTTCGGTGCCGTGATTATATGCTTATAG", "fluorescence intensity [a.u.]": 535}
{"Strand": "CTACGGTCTTGGCCGCACGTAAAACCTGTGTGGTTC", "fluorescence intensity [a.u.]": 493}
{"Strand": "CTAGTAATGAACCACCACCAGTTGTAAGCAGTCTTC", "fluorescence intensity [a.u.]": 563}
{"Strand": "CTAGAACTTACAAGAAATATCACGTTGGCGCGCTTC", "fluorescence intensity [a.u.]": 965}
{"Strand": "CTAAAAATAAATGAACACATGGAAATAAGTCAATTC", "fluorescence intensity [a.u.]": 634}
{"data": "Sample 4", "target": "RNA binding protein fox-1 homolog 2, RRM domain, GST-SBP tag (RBFOX2, Homo sapiens, UniProt O43251-10, residues 100-194)", "method": "RNA Bind-n-Seq", "molecule type": "RNA", "matrix": "in vitro", "tested at": "365 nM", "setting": "natural RNA segment, single round, ends assumed", "reference": "no-protein control", "reading": "higher = stronger binding", "shared flanks, not repeated": "GGGAGUUCUACAGUCCGACGAUC … UGGAAUUCUCGGGUGCCAA", "Construct (chain)": "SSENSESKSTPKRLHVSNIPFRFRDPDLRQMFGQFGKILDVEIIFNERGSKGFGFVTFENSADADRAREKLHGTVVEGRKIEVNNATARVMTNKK"}
{"Strand": "GCCUUUUCAGCAGCGAUGGUCUCAGUGUGCUUGGGGCAGGAGUACAUAGUUUCUAUGAGCGAUAUAAAGAGUUCCUGUUUCCCUUCACUGGGCCUAAGCCUUUCUGCAUU", "RBNS enrichment (R)": 0.475}
{"Strand": "CCCAGCAAAUUUGAGGCCUAUGGUAGUUGAGGUGCUCAACUAAUGUUUGUUGUAUGAACCAAGUGGUUUGAAGACUUGCUGCCAAAUUCUGCCUUUUGGGUCAGUAUAGG", "RBNS enrichment (R)": 2.2}
{"Strand": "AGUGUAUUAAUCAUAGAUUAUUAUAAACUAUAAACUUAAGGGCAAGGAAUUUAUUACAAUGUAUCUUUAUUAAAACAAAAGGGUGUAUAGUGUUCACAAACUGUGAAAAU", "RBNS enrichment (R)": 0.779}
{"Strand": "UUUGGCCACAAAACACCAAAGAAUUGUAGGCAGUGGCCCCUAUUGAGAAGUUUUCCGGUAGAGUUGGAAAUCAGUUGUGAAUACAUUCUUUGCUAGUUGGAGUGCUUGUU", "RBNS enrichment (R)": 0.854}
{"Strand": "GAAGGGCUUUUCUCUACCCUGAAAUGAAGGUAAUCCAAAGGCAUCCAUUUUCUAGGCUUAAAAGAUAUAUUUUUGAUAUAUUUAAUUAUAUUCUCUACACUCCAGCAUUA", "RBNS enrichment (R)": 1.4}
{"Strand": "UGUCUACUCCUUAAUUGUCACAUUAGAAUUUGGUCGGCCAUUGUUUUGGUUAUGUUGCUGAUGUAAAUUUGUGUAAAUGGUUUCUACCCUGGAGAGUGUGUGUACCGUGU", "RBNS enrichment (R)": 8.77}
{"Strand": "GAUGUGCCCUGUUGCCCCCCACCCCAUCCCGCACAGAACCAUCCCUGCAUUCCACAGGGGACUCGGGCAAGGGUGCCGAAGAUAGACAAGAGGCACACAGAGACAGACCA", "RBNS enrichment (R)": 0.43}
{"Strand": "UGGUCACCUGUGCCCCUCGUGUCUCCUCACAUGGGUGUCUGUGGUUCUCUCCUGUGUAAAUGUCACGCCCCACCCCUGUUUCAUGUGGGCACUAACACGUGUGCGUUCCU", "RBNS enrichment (R)": 0.33}
{"Strand": "AAAAAAAUGUACCUGAUUGCUCCCAAUUAUGAGAGGAUUGGGUGGGCAGGGGAACUCCUAAAAUAAUACAUGACCACUUCCUCAUUUCUGGGGAAGGAAAGGAGACUAGA", "RBNS enrichment (R)": 0.432}
{"Strand": "ACACAGCAUUUUCAAAGAUAGCCUGGGAGCACUGUCUCUGACCACCUGUCUUCCUCUGCACCGUGCUCAGGGAAAUGGCCUUCAUUCCAGAGGCCAGCUGUCUGCCUGAC", "RBNS enrichment (R)": 0.33}
{"Strand": "CGUCUUGUAACUAACUUUUGAAUUUUGCCUGACAUGAUUCUCUCUUGAUGAAGAAAUGACAUAUAUUAUCUUUGAAUAUCUACAAGGAAAGUUACCAACUUAUGUAGGGG", "RBNS enrichment (R)": 0.451}
{"Strand": "CAUGGCUUCACUUUCCUGUGUUAUGAGAAGGUCACACUUUGGAAUACUGAAGGACAAUCCUGAAGUGCUGCAGCGCAUAGUGAAUGCCUCUUGGUGUUUUCACGUUCGUC", "RBNS enrichment (R)": 0.281}
